Results gathered from unrelated publications.
Compare with care: the assays were run in different laboratories. “And” joins repeats or separate records; there may be more than shown. Numbers after ± are the reported error.
Sequence of UniProt Q9UBS0 (whole entry, looked up): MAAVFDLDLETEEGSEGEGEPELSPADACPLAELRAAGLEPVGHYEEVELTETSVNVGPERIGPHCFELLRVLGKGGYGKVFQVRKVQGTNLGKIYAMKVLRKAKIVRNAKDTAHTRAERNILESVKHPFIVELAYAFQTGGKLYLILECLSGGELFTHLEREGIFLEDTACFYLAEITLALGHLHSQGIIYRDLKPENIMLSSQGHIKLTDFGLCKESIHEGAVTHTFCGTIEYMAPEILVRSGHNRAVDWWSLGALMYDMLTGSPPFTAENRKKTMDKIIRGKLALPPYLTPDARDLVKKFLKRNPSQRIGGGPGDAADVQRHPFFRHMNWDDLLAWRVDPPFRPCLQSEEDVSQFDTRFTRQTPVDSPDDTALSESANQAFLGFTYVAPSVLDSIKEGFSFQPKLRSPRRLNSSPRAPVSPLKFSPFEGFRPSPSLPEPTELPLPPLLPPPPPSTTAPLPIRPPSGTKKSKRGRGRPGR

With Cc1cc(Oc2nc(N3CC[C@@H](c4ccncc4)C3)ncc2F)[nH]n1 the IC50 was > 100 µM (Granta-519; cell proliferation; blood cancer).
With CC(C)(C)C(=O)OCOP(=O)(OCOC(=O)C(C)(C)C)C1CCCN(O)C1=O (stereo not shown) the GI50 was 0.977 µM (MDA-MB-468).
For CSCC[C@H](N)C(=O)N[C@@H](C)C(=O)N[C@@H](Cc1c[nH]c2ccccc12)C(=O)N[C@@H](Cc1c[nH]cn1)C(=O)N[C@@H](CC(=O)O)C(=O)N[C@@H](CC(=O)O)C(=O)N[C@@H](CCC(=O)O)C(=O)N[C@@H](CCC(=O)O)C(=O)N[C@@H](Cc1ccccc1)C(=O)N[C@@H](C)C(=O)N[C@@H](CCCNC(=N)N)C(=O)N[C@@H](CCCNC(=N)N)C(=O)N[C@@H](CCCNC(=N)N)C(=O)N[C@@H](CCCNC(=N)N)C(=O)NCCCCCC(=O)NCCCCC(NC(=O)CCCCCNC(=O)[C@H](CCCNC(=N)N)NC(=O)[C@H](CCCNC(=N)N)NC(=O)[C@H](CCCNC(=N)N)NC(=O)[C@H](CCCNC(=N)N)NC(=O)[C@H](C)NC(=O)[C@H](Cc1ccccc1)NC(=O)[C@H](CCC(=O)O)NC(=O)[C@H](CCC(=O)O)NC(=O)[C@H](CC(=O)O)NC(=O)[C@H](CC(=O)O)NC(=O)[C@H](Cc1c[nH]cn1)NC(=O)[C@H](Cc1c[nH]c2ccccc12)NC(=O)[C@H](C)NC(=O)[C@@H](N)CCSC)C(=O)NCCCCC(NC(=O)C(CCCCNC(=O)CCCCCNC(=O)[C@H](CCCNC(=N)N)NC(=O)[C@H](CCCNC(=N)N)NC(=O)[C@H](CCCNC(=N)N)NC(=O)[C@H](CCCNC(=N)N)NC(=O)[C@H](C)NC(=O)[C@H](Cc1ccccc1)NC(=O)[C@H](CCC(=O)O)NC(=O)[C@H](CCC(=O)O)NC(=O)[C@H](CC(=O)O)NC(=O)[C@H](CC(=O)O)NC(=O)[C@H](Cc1c[nH]cn1)NC(=O)[C@H](Cc1c[nH]c2ccccc12)NC(=O)[C@H](C)NC(=O)[C@@H](N)CCSC)NC(=O)CCCCCNC(=O)[C@H](CCCNC(=N)N)NC(=O)[C@H](CCCNC(=N)N)NC(=O)[C@H](CCCNC(=N)N)NC(=O)[C@H](CCCNC(=N)N)NC(=O)[C@H](C)NC(=O)[C@H](Cc1ccccc1)NC(=O)[C@H](CCC(=O)O)NC(=O)[C@H](CCC(=O)O)NC(=O)[C@H](CC(=O)O)NC(=O)[C@H](CC(=O)O)NC(=O)[C@H](Cc1c[nH]cn1)NC(=O)[C@H](Cc1c[nH]c2ccccc12)NC(=O)[C@H](C)NC(=O)[C@@H](N)CCSC)C(N)=O (stereo partly shown), “nuclei with nuclear p38” read 50% (mouse bone marrow macrophages; immunocytochemistry; 3 µM, added: RANKL).
With O=C(C[Se]C(=O)c1ccco1)Nc1cccc(C(F)(F)F)c1 the mean TGI was 19.8 µM (NCI60 colon subpanel; NCI60 five-dose screen).
O=C1NC2(CC2)COc2ncc(F)cc2[C@H]2COCCN2c2ccn3ncc1c3n2 has a serum triglycerides of 0.39 ± 0.17 mmol/L (Sprague-Dawley rat, male, serum; oral, 10 mg/kg/day, end of recovery, 4-week subacute toxicity).
Cc1ccc(C(C)C)cc1.Cc1ccc(C(C)C)cc1.Cc1ccc(C(C)C)cc1.Cc1ccc(C(C)C)cc1.O=S(=O)(O)C(F)(F)F.O=S(=O)(O)C(F)(F)F.O=S(=O)(O)C(F)(F)F.O=S(=O)(O)C(F)(F)F.c1ccc2c3c4ccccc4c(c2c1)-c1cn(nn1)-c1cc[n+](cc1)[Ru-]1[O]c2ccc4c5c(ccc(c25)=[O+]1)=[O+][Ru-]([O]4)[n+]1ccc(cc1)-n1cc(nn1)-c1c2ccccc2c(c2ccccc12)-c1cn(nn1)-c1cc[n+](cc1)[Ru-]1[O]c2ccc4c5c(ccc(c25)=[O+]1)=[O+][Ru-]([O]4)[n+]1ccc(cc1)-n1cc-3nn1 gave an IC50 of 5.9 ± 0.16 µM (AGS; cell growth, MTT; 24 h, after 24 h preincubation in medium at 37 °C).
With CC1CCC2C(C)C(OC(=O)CCC(=O)N3CCC(Nc4ccc(S(=O)(=O)NC(=O)c5ccc(N6CCN(CC7=C(c8ccc(Cl)cc8)CC(C)(C)CC7)CC6)cc5Oc5cnc6[nH]ccc6c5)cc4[N+](=O)[O-])CC3)OC3OC4(C)CCC1C32OO4 (stereo not shown) the apoptotic cells was 70% (THP-1; annexin V/PI flow cytometry; 0.8 µM, 24 h).
For CC[C@H](C)[C@H](NC(=O)[C@@H](NC(=O)[C@@H]1CCCN1C(=O)[C@@H](NC(=O)[C@@H](NC(=O)[C@H](Cc1c[nH]cn1)NC(=O)[C@@H]1CCCN1C(=O)[C@H](CC(C)C)NC(=O)[C@@H](NC(=O)[C@H](Cc1c[nH]cn1)NC(=O)[C@H](CCCCN)NC(=O)[C@H](C)NC(=O)[C@H](CO)NC(=O)CNC(=O)[C@H](CC(C)C)NC(=O)[C@@H](NC(=O)CNC(=O)[C@H](Cc1ccccc1)NC(=O)[C@H](CC(C)C)NC(=O)CNC(=O)[C@@H](N)Cc1ccc(O)cc1)C(C)C)C(C)C)C(C)C)C(C)C)C(C)C)C(=O)N[C@@H](C)C(=O)N[C@@H](CCC(=O)O)C(=O)N[C@@H](Cc1c[nH]cn1)C(=O)N[C@@H](CC(C)C)C(N)=O, the viability was 96.7 ± 3.55% (HepG2; MTT; 40 µg/mL, 24 h).
For CC[C@H](C)[C@H](NC(=O)[C@H](CO)NC(=O)[C@H](Cc1ccc(O)cc1)NC(=O)[C@H](Cc1ccc(O)cc1)NC(=O)[C@H](CC(N)=O)NC(=O)CNC(=O)[C@H](CO)NC(=O)[C@H](Cc1ccc(O)cc1)NC(=O)[C@H](CO)NC(=O)[C@H](CO)NC(=O)[C@H](CC(N)=O)NC(=O)COCCOCCNC(=O)CN1CCN(CC(=O)O)CCN(CC(=O)O)CCN(CC(=O)O)CC1)C(=O)N[C@@H](CC(C)C)C(N)=O [copper-64 labelled], the tumour uptake was 2.95 %ID/mL (dynamic PET; KPC mouse, pancreatic cancer model, blood; intravenous, 0.1 min, 49 days after tamoxifen).
For O=C(C[Se]C(=O)C12CC3CC(CC(C3)C1)C2)Nc1cccc(C(F)(F)F)c1, the CC50 was 15.3 µM (NCI60 CNS subpanel; NCI60 five-dose screen).
CC(C)[C@H](NC(=O)[C@H](CCCNC(=N)N)NC(=O)[C@@H]1CCCN1C(=O)[C@@H](NC(=O)[C@H](C)NC(=O)[C@H](Cc1ccc(O)cc1)NC(=O)[C@H](CCC(N)=O)NC(=O)[C@H](CCCCN)NC(=O)[C@H](CCCNC(=N)N)NC(=O)[C@@H]1CCCN1C(=O)[C@H](CCC(=O)O)NC(=O)[C@@H](NC(=O)[C@H](C)N)[C@@H](C)O)[C@@H](C)O)C(=O)N[C@@H](Cc1ccccc1)C(=O)N[C@@H](Cc1c[nH]c2ccccc12)C(=O)N[C@H](C(=O)N[C@@H](CC(=O)O)C(=O)N[C@@H](C)C(=O)N1CCC[C@H]1C(=O)NCC(=O)NCCOCCOCCOCCOCCOCCOCCOCCOCCOCCOCCOCCOCCC(=O)N[C@@H](CS)C(N)=O)[C@@H](C)O gave a selectivity ratio of 210 ± 53 (Huh-7 liver cancer; phage binding; reference: targeting over control phage).
O=C(O)c1ccc(-c2nc(-c3ccccc3Cl)c3sccn23)cc1: “multipotential progenitor colonies” “no effect” (human CD34+ haematopoietic stem cells; colony; concentration not given, 24 h priming before plating, single dose).
O=C(C[Se]C(=O)c1ccccc1)Nc1cccc(C(F)(F)F)c1 gave a mean TGI of 4.01 µM (NCI60 CNS subpanel; NCI60 five-dose screen).
The survival of Cc1cc(C(=O)Nc2nc3cccc(C)c3n2[C@H]2CCCCN(C(=O)/C=C/CN(C)C)C2)ccn1 is reported as 9.4% and 7.76% and 5.63% and 9.14% (Trypanosoma brucei brucei; 2T1 CLK1 overexpressing; 10 µM, DMSO pretreated; reference: maximum).
With N=C(N)NCCC[C@H](NC(=O)[C@H](CCCNC(=N)N)NC(=O)[C@H](CCCNC(=N)N)NC(=O)[C@H](CCC(N)=O)NC(=O)[C@H](CCCNC(=N)N)NC(=O)[C@H](CCCNC(=N)N)NC(=O)[C@H](CCCCN)NC(=O)[C@H](CCCCN)NC(=O)[C@H](CCCNC(=N)N)NC(=O)[C@H](Cc1c[nH]c2ccccc12)NC(=O)[C@H](Cc1c[nH]c2ccccc12)NC(=O)[C@@H](N)CSSC[C@H](N)C(=O)N[C@@H](Cc1c[nH]c2ccccc12)C(=O)N[C@@H](Cc1c[nH]c2ccccc12)C(=O)N[C@@H](CCCNC(=N)N)C(=O)N[C@@H](CCCCN)C(=O)N[C@@H](CCCCN)C(=O)N[C@@H](CCCNC(=N)N)C(=O)N[C@@H](CCCNC(=N)N)C(=O)N[C@@H](CCC(N)=O)C(=O)N[C@@H](CCCNC(=N)N)C(=O)N[C@@H](CCCNC(=N)N)C(=O)N[C@@H](CCCNC(=N)N)C(=O)NCC(N)=O)C(=O)NCC(N)=O the nuclear concentration was 1.8 µM (Neuro2a; protein delivery, fluorescence, in-gel, SDS-PAGE, refers to: AF488-H1; 2.5 µM, 1 h, added: AF488-H1 0.75 µM).
The relative abundance of COc1ccccc1-c1n[nH]c2nc(NC3CCN(C(=O)Cc4ccc(F)cc4F)CC3)ncc12 is reported as 0.82 (bead binding, competition bead pull-down, refers to: LINJ.36.2490; Leishmania donovani extract; 10 µM; reference: vehicle).
CN(C)[C@H]1C[C@@]23CC[C@@]4(O2)C(=CC[C@]2(C)[C@@H](c5ccc6ccncc6c5)CC[C@H]24)C=C3[C@@H](O)[C@@H]1O gave an inhibition of -7.3% (Ribosomal protein S6 kinase beta-2 (RPS6KB2, Homo sapiens, UniProt Q9UBS0); ATP probe labelling, inhibitor, KiNativ profiling; 1 µM).
The selectivity ratio of CSCC[C@H](NC(=O)[C@@H](NC(=O)[C@H](CCC(N)=O)NC(=O)[C@H](CO)NC(=O)[C@@H](N)C(C)C)[C@@H](C)O)C(=O)N[C@@H](CCCNC(=N)N)C(=O)N[C@@H](CCC(N)=O)C(=O)N[C@H](C(=O)N[C@@H](C)C(=O)N[C@H](C(=O)N1CCC[C@H]1C(=O)N[C@@H](CC(C)C)C(=O)N[C@@H](CC(C)C)C(=O)N[C@@H](Cc1c[nH]c2ccccc12)C(=O)N[C@@H](Cc1ccccc1)C(=O)N[C@@H](Cc1c[nH]c2ccccc12)C(=O)N[C@H](C(=O)NCC(=O)N[C@@H](CO)C(=O)N[C@@H](CC(C)C)C(=O)NCCOCCOCCOCCOCCOCCOCCOCCOCCOCCOCCOCCOCCC(=O)N[C@@H](CS)C(N)=O)[C@@H](C)O)C(C)C)[C@@H](C)O is reported as 200 ± 60 (Huh-7 liver cancer; phage binding; reference: targeting over control phage).
For O=C1C=CC(=O)c2c(O)cccc21, the selectivity index was 0.81 (HepG2; MTT; reference: IC50 MRC-5 over IC50 HepG2).
With COc1ccccc1-c1n[nH]c2nc(N[C@H]3CC[C@H](NS(=O)(=O)CC(C)C)CC3)ncc12 the relative abundance was 0.92 (bead binding, competition bead pull-down, refers to: LINJ.30.3000; Leishmania donovani extract; 10 µM; reference: vehicle).
The GI50 of O=C(C[Se]C(=O)c1cccs1)Nc1cccc(C(F)(F)F)c1 is reported as 3.2 µM (NCI60 colon subpanel; NCI60 five-dose screen).
With CC1OC2OC3C4=C(OC3(C)C12O)C(=O)c1c(O)cccc1C4=O (stereo not shown) the selectivity index was 3.73 (MDA-MB-231 and Vero; MTT; reference: CC50 Vero over EC50 MDA-MB-231).
COc1ccccc1-c1ccncc1C(=O)Nc1nnc(OCc2ccc(Cl)cc2)s1 has a colony survival of 96.5% (DLD-1 parental (BRCA2 WT); 1 µM, average of 3 runs; reference: untreated).
With CS(C)(=O)=Nc1ccc(-c2ccc(-c3nc4cc(O[C@@H]5CO[C@H]6[C@@H]5OC[C@H]6O)[nH]c4cc3F)cc2)cc1 the inhibition was 38% (Melanin-concentrating hormone receptor 1 (MCHR1, Homo sapiens, UniProt Q99705); calcium signal, antagonist; 10 µM).
For Cc1nc2cccc(OCC(C)(C)C(=O)NC(C)C)c2c(N)c1C(=O)[O-].[Na+], “revertant colonies per plate” read 12 ± 5 (Salmonella typhimurium; TA1537; 2.0 mg per plate, with S9, preincubation).
